Measurements of several laboratories.
Each line is one published result; not all experiments were run side by side. Substitutions count along the parent as printed. Numbers after ± are the reported error.
gabR full length assumed: gabR full length assumed (Bacillus subtilis, UniProt P94426)
Chain of UniProt P94426 (whole entry, looked up): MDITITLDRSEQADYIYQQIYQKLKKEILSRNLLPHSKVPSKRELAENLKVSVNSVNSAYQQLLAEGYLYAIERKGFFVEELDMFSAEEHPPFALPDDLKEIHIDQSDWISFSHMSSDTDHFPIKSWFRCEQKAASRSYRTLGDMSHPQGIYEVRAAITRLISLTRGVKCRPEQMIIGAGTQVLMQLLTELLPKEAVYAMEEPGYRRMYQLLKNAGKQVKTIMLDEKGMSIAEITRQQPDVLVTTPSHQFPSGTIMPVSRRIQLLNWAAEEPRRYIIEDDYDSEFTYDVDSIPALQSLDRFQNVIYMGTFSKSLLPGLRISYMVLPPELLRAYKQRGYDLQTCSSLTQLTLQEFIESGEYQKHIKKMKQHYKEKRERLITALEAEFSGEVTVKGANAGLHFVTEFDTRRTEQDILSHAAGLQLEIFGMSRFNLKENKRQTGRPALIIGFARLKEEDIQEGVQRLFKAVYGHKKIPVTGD
SPC42 residues 1-134: SPC42 fragment (Saccharomyces cerevisiae)
TDG: TDG 1-410 (Homo sapiens, UniProt Q13569)
Chain of UniProt Q13569 (whole entry, looked up): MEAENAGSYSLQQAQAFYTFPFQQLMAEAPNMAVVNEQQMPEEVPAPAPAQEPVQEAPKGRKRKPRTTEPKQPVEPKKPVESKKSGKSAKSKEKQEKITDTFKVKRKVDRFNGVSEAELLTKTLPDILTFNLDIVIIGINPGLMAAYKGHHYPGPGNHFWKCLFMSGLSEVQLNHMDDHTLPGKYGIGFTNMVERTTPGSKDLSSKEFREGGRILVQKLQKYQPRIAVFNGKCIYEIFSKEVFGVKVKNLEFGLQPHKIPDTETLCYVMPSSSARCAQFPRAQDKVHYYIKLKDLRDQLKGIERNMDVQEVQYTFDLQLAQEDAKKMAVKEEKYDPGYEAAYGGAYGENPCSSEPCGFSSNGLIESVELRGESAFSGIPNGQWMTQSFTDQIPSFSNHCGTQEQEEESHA
P1: SFI1 residues 1-296 (Saccharomyces cerevisiae); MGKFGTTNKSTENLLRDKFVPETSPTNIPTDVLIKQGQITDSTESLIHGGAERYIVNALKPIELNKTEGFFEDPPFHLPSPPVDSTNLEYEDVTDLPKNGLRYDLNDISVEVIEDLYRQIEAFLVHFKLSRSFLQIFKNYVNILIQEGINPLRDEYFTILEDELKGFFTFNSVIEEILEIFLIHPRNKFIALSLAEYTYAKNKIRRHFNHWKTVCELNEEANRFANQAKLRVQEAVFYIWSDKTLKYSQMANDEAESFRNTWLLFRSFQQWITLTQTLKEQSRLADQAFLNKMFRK
P2: ALIS5 (Arabidopsis thaliana); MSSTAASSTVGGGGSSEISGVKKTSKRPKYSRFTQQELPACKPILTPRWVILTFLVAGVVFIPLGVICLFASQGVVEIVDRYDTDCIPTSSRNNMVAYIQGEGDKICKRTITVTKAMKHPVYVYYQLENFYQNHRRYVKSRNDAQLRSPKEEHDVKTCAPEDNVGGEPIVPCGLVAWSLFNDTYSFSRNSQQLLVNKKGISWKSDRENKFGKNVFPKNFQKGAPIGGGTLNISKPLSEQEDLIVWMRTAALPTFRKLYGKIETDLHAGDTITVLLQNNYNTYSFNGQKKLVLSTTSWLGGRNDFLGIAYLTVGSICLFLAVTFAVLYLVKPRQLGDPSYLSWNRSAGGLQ
P3: APOBEC3G/EYFP (Homo sapiens); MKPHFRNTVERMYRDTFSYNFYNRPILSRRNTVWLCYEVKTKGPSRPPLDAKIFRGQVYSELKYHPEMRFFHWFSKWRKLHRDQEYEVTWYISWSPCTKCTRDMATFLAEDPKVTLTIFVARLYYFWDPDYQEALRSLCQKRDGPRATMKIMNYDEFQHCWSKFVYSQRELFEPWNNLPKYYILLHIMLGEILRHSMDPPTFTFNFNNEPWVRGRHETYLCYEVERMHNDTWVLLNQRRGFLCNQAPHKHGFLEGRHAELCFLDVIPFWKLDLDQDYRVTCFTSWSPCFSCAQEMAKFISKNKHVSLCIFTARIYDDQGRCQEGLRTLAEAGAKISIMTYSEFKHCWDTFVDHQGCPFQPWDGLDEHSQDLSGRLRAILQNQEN; partner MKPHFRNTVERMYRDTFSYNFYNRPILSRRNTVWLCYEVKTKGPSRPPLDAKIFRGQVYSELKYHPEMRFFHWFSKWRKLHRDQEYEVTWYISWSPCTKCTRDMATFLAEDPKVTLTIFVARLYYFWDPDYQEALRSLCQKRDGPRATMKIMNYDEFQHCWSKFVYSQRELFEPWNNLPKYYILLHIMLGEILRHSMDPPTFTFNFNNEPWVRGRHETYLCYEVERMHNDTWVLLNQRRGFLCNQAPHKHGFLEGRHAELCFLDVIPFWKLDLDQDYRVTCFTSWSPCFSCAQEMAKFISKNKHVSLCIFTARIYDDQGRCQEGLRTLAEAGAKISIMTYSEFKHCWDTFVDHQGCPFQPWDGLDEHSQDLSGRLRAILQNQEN
P4: FAS/IgG1 Fc extracellular domain with hinge; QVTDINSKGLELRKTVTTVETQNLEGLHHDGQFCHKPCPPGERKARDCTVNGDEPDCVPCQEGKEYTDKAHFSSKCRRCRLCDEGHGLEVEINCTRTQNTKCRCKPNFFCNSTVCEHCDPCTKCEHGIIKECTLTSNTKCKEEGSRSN; partner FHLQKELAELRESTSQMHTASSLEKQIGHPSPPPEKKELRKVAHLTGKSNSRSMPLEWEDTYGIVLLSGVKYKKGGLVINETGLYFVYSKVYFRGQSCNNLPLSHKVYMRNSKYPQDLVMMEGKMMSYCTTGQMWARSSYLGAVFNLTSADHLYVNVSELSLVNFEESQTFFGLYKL
Chain of UniProt Q9NR56 (whole entry, looked up): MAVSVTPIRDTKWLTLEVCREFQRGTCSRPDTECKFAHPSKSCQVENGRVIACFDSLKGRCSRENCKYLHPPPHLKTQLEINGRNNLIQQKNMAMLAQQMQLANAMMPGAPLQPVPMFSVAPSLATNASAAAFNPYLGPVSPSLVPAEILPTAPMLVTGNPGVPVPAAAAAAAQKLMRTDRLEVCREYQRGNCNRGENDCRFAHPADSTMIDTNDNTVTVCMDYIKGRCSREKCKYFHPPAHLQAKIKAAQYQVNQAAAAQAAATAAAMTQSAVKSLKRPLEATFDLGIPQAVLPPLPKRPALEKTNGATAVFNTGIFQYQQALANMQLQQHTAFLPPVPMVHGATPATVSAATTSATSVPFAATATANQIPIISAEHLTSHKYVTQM
Chain of UniProt P0A9X9 (whole entry, looked up): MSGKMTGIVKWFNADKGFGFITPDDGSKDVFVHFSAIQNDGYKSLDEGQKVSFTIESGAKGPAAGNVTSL
Chain of UniProt A8T666 (whole entry, looked up): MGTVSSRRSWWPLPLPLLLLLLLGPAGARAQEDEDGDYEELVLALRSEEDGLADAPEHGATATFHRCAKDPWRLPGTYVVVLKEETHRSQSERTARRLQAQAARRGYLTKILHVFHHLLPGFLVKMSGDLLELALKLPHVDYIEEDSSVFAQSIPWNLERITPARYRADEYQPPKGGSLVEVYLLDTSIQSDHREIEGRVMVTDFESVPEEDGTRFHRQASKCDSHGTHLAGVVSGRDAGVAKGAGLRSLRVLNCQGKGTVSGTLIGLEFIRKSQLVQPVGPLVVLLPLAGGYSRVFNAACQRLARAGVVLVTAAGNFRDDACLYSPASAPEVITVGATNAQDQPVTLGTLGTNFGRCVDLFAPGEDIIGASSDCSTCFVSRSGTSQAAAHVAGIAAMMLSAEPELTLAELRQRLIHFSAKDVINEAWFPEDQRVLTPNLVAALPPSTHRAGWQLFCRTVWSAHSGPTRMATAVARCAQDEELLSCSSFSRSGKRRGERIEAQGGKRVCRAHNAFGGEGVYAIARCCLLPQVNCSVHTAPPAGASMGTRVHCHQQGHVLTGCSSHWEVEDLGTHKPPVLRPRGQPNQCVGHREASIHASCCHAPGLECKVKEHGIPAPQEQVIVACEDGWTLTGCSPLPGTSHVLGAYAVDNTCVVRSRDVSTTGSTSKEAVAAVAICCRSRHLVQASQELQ
Chain of UniProt P26358 (whole entry, looked up): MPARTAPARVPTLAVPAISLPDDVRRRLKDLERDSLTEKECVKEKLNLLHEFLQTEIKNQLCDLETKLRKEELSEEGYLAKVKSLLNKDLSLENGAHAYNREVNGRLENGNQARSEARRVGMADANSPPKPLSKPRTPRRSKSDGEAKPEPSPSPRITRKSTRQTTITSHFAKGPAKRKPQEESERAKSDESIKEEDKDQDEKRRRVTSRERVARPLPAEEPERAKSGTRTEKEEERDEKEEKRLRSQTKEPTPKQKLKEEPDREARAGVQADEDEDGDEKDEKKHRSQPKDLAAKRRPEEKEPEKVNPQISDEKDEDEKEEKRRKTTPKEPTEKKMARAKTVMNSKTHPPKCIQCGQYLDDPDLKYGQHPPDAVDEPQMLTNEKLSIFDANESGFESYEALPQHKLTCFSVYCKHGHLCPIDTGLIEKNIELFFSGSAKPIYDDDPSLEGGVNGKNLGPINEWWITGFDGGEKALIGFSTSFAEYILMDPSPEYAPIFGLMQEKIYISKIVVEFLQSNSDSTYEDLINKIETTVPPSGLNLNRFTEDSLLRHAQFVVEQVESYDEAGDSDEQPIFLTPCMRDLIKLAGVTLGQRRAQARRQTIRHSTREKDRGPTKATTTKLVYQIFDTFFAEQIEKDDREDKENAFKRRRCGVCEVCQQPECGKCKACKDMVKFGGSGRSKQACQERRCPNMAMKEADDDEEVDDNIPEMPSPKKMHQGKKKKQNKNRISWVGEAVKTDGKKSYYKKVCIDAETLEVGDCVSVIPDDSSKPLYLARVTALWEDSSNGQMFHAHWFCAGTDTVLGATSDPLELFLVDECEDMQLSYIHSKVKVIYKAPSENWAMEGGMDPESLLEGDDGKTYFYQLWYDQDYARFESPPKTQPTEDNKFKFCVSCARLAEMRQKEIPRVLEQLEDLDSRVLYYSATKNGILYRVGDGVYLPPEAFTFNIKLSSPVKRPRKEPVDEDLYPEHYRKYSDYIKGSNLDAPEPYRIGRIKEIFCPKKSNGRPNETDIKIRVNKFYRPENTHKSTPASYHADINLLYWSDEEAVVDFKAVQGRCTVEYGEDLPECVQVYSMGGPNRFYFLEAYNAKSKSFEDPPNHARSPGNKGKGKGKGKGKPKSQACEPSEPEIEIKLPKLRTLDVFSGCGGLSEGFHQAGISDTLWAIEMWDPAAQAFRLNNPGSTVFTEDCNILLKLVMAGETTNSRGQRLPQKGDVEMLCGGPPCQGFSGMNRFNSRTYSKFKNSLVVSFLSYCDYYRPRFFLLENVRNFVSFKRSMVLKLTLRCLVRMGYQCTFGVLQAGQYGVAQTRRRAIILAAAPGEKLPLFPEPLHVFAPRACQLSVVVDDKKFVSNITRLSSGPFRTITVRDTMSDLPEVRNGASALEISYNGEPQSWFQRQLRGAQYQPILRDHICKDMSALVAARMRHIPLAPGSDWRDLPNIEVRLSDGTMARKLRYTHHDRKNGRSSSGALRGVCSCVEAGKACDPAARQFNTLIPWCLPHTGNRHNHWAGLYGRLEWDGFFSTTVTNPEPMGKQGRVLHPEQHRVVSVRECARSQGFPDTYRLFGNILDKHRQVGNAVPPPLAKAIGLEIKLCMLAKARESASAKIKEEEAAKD

| Molecule | target or system | test | system | setting | how to read | endpoint | result |
| --- | --- | --- | --- | --- | --- | --- | --- |
| CTTCTGATACCATAAAAAAGTTTTAATTGGAACTTTTAATCATACCAAAGAGAAGTCAGAATGATAAGAAAATACCG (dsDNA (Bacillus subtilis)) | gabR full length assumed | BLI | double-stranded DNA, one strand shown |  |  | Kd | 101 ± 16 nM |
| P1 S10D T11D S42D S45D | SPC42 residues 1-134 | yeast two-hybrid |  | read off a plot, together with: Cdc31 | relative to: unchanged protein, higher = stronger interaction | relative interaction | 0.27 |
| CCUGUCUCGCUUUUCCCCUCCGCUGCGGCCAC (ssRNA (Homo sapiens); hairpin) | MBNL1 173-255 (Homo sapiens, UniProt Q9NR56) | NMR titration | folded RNA |  |  | binding | binds |
| CTTCTGATACCATCATATAGTTATATAAGGTACTTATCATCATACCAAAGAGAAGTCAGAATGATAAGAAAATACCG (dsDNA (Bacillus subtilis)) | gabR full length assumed | BLI | double-stranded DNA, one strand shown |  |  | Kd | 1160 ± 650 nM |
| GTGTCACCACTGCTCACGTACAGAGCTG (dsDNA; fully paired duplex) | TDG | competition | double-stranded DNA, one strand shown |  |  | Kd | 26 ± 8 nM |
| P1 S10D T11D S42D T43D S45D | SPC42 residues 1-134 | yeast two-hybrid |  | read off a plot, together with: Cdc31 | relative to: unchanged protein, higher = stronger interaction | relative interaction | 0.3 |
| CGGGCGGGCGCGAGGGAGGGG (G-quadruplex DNA; G4) | DNMT1 1-1616 (Homo sapiens, UniProt P26358) | ELISA | folded DNA | K+ 100 mM |  | Kd | 15.2 ± 0.4 nM |
| P2 N181Q N231Q | ALA2 (Arabidopsis thaliana) | pull-down | yeast membranes | read off a plot | relative to: unchanged protein, higher = more binding | relative binding | 0.28 |
| AACGUACUUUAAGGCCUAUUGAGGAAACUC (ssDNA; all dC Pp-dC; all dU Nap-dU) | PCSK9 31-692 (Macaca mulatta, UniProt A8T666) | filter binding |  |  |  | Kd | 0.0113 nM |
| P3 W127A | APOBEC3G Renilla luciferase fusion (Homo sapiens) | BRET | 293T | read off a plot | relative to: unchanged protein, higher = more binding | relative binding | 0.13 |
| DNA 1 GTGTCACCACTGCTCATGTACAGAGCTG / DNA 2 CAGCTCTGTACGTGAGCAGTGGTGACAC (dsDNA; 2'-F-arabino-T mispaired with G, CpG) | TDG | fluorescence anisotropy | double-stranded DNA |  |  | Kd | 18 ± 3 nM |
| CGCGGGGUGGAGCAGCCUGGUAGCUCGUCGGGCUCAUAACCCGAAGAUCGUCGGUUCAAAUCCGGCCCCCGCAACCA (tRNA (Escherichia coli); cloverleaf, unmodified) | trmJ 1-246 R84A (Escherichia coli, UniProt P0AE01) | EMSA | folded RNA | Mg2+ 5 mM, together with: sinefungin 500 µM |  | binding | no binding |
| P4 H117S | FASLG/CD8 fusion (Homo sapiens) | SPR |  | end of injection, read off a plot | higher = more binding | binding response | 58 RU |
| GGUCUGUUUCCAGACCUCC (ssRNA; hairpin) | cspA full length assumed (Escherichia coli, UniProt P0A9X9) | NMR chemical shift titration | folded RNA | 20 °C |  | Kd | 12000 ± 2000 nM |
| CTTCTGATACCATCAAAAAGTTATAATTGGTACTTTTCATCATAGGAAAGAGAAGTCAGAATGATAAGAAAATACCG (dsDNA (Bacillus subtilis)) | gabR full length assumed | BLI | double-stranded DNA, one strand shown |  |  | Kd | 7100 ± 1900 nM |

Repeated from above:
| Molecule | target or system | test | system | setting | how to read | endpoint | result |
| --- | --- | --- | --- | --- | --- | --- | --- |
| P1 S10D T11D S42D S45D | SPC42 residues 1-134 | yeast two-hybrid |  | read off a plot, together with: Cdc31 | relative to: unchanged protein, higher = stronger interaction | relative interaction | 0.27 |
| CCUGUCUCGCUUUUCCCCUCCGCUGCGGCCAC (ssRNA (Homo sapiens); hairpin) | MBNL1 173-255 (Homo sapiens, UniProt Q9NR56) | NMR titration | folded RNA |  |  | binding | binds |
